Results from different studies.
Parts stem from different laboratories: compare values within a part only.

Set 1
Target: RNA binding protein fox-1 homolog 2, RRM domain, GST-SBP tag (RBFOX2, Homo sapiens, UniProt O43251-10, residues 100-194)
Technique: RNA Bind-n-Seq
Molecule type: RNA
Sample: in vitro
Tested at: 365 nM
Setting: natural RNA segment, single round, ends assumed
Reference: no-protein control
Reading: higher = stronger binding
Endpoint: RBNS enrichment (R)
Target sequence (chain): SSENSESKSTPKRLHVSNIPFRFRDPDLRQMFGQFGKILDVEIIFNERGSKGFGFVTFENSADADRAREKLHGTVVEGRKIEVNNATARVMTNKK
Strand = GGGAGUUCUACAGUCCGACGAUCGAGCUGCCUCUGCCCCUGGGCAAGGAAGCGAGGCCCUCUGGGAGGAGGGUGCUUAGCUCCAGAGCAGGAUGGGACUUCCCCAGGCAGGAAGCACUUGAUGGAGAGCUGCCUGGAAUUCUCGGGUGCCAA; result = 0.276
Strand = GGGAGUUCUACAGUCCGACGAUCGGAACGAGGGGUAUGUUUUAGAGCUAUGAGAACCUAGUCAGCCCACAGAGGCGUCAAACCUGAAGCUUGGGCCUUAAUUAGCAUUGUACUCUGAUGAAAGGACUCUUUCAUGGAAUUCUCGGGUGCCAA; result = 0.356
Strand = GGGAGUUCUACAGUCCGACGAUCAUUUGUUUUAAGAGAUAGAACUCUAUUUUUUUGAACUUCCAGAGAAUUGCAUUCAUGGCUUCCACUUGUAAAUAUGCUAAGGGUAUUUUAAUAAAUCUUGGUUUCAUGUCUGGAAUUCUCGGGUGCCAA; result = 0.634
Strand = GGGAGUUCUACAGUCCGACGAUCGCUGAGCCAAAUGCCCAGCACUGCCCCCACCUAACUGGGCACUUGUCUAGGGCACACCACCCCCAGCUGCUCACACACAGACCACAUAUUCCUUCUGGGAAGGCCAGCAUUGGAAUUCUCGGGUGCCAA; result = 0.297
Strand = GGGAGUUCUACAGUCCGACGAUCCUUUUGAAUGAAUGAAAAAGGGUAUCUUGAUACCCAGAAUUCCCCCCAAAGUACGGGUAAUUCAACCUGCACAGUUUUCUUUCACUCAAAGUGUUCAGCACUUGUGAGUGUGGAAUUCUCGGGUGCCAA; result = 0.946
Strand = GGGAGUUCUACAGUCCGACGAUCCCUGGUUCCCUGGGACAGCAGGAUCCCCUCCUCAAAGCAGCCAGAGUUUACUGAACACCAAGGAAGAAGUGAGACCUCAGUGACUGUUCUCGUGCCAAGAAGCCCUGGGCUGGAAUUCUCGGGUGCCAA; result = 0.291
Strand = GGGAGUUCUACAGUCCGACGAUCGGGCACACCCAGGGCCACCUGGGUGUAGGAGAGCUCUGGUGGCCCCUCCGUAAACUCAGGAAGUGUCAGGUGAUUUCCUAGGGAGAGGUUCCCAGUCCCAGCAGGCAGAAUGGAAUUCUCGGGUGCCAA; result = 0.694
Strand = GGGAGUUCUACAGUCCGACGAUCUUUAUAACUGAGAUGUACCUAAAUUAUGACCAUUUGGUUUAUGAAUAUUCUACUGUGACAUGAAAAGUUCCUGUAUUUUCAAAAACUUUUCUAUUAAAAUUGAUUUAACUUGGAAUUCUCGGGUGCCAA; result = 0.588
Strand = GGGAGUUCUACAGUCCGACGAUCCCCAGCUCAGAACCUAGGAAUCCCACAGCCCUAACCCCAGCCUUCAUACAGACUUUUAAUCCUCUACCACAUGCGAAUGCUGAACCCUCAGGAAGACCCACCUCUAUACCUGGAAUUCUCGGGUGCCAA; result = 0.748

Set 2
Target: Centromere-binding protein 1, full length, His-tagged (CBF1, Saccharomyces cerevisiae, UniProt P17106, residues 1-351)
UniProt P17106, sequence (whole entry, looked up): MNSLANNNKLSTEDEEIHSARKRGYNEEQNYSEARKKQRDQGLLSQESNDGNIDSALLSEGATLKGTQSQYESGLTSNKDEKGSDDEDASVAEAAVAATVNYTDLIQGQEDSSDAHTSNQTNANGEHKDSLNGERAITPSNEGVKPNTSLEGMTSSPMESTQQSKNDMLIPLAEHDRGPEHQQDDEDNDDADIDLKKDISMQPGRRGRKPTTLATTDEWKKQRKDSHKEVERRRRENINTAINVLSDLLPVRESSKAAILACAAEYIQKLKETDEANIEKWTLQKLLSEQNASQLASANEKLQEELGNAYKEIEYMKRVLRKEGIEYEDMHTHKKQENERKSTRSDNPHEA
Technique: competition protein-binding microarray
Molecule type: double-stranded DNA, one strand shown
Sample: in vitro
Tested at: 2 µM
Setting: whole 60-bp probe, lowest competitor level
With: Pho4 competitor, 0.05 µM
Reading: higher = stronger binding
Endpoint: fluorescence intensity
Strand = CCTTCGTTGTTATCGTCCGTGTCGGTATCCACTTCCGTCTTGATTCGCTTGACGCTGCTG; result = 60.4 a.u.
Strand = AGCTTGTTTATCTTGCACATGGCAAGGCCATCGCGGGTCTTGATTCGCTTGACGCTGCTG; result = 136 a.u.
Strand = TGCGAAGGCACCTGGGTCGTGCCAGTATTTGGCGCCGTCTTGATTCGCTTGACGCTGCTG; result = 52.6 a.u.
Strand = CACTGGCTGCTCCATCACGGGTCTCGAGGCGGAGACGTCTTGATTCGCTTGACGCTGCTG; result = 103 a.u.
Strand = CATGCCATAAGCCATCACCTGGCCAGTTGGCGTATGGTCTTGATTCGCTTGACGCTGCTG; result = 86.7 a.u.
Strand = TGCGCAACAACTTGAAACGTGGGTGTATGTCTAGAAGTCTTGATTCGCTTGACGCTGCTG; result = 99.8 a.u.
Strand = CTAAACAGTCCGCCCAACGTGGTCGAGTTTGCTTTAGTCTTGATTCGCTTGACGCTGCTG; result = 79.1 a.u.
Strand = AAATTACTAAGTTTTCACGTGCTTTACCCCGTATGAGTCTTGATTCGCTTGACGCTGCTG; result = 1680 a.u.
Strand = GTCTTGTCTCATTGGACTGTGGGTGTCCCCACTTCAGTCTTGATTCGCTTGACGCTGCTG; result = 77.5 a.u.
Strand = TTACTTTTTCAAAGACTCGTGCTTTCTATTGCATAAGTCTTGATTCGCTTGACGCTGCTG; result = 174 a.u.
Strand = ATAAGAACGCTACCAAACGTGGTAACTTGTCCGTCAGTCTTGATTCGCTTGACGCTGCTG; result = 97.5 a.u.
Strand = CTTCTGTAAATTTGTCACTTTACTTGACGCGCCCCGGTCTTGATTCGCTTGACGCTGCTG; result = 93.5 a.u.
Strand = TAACGGCTATCCCATCACGTTCTCACCGAGGAGACCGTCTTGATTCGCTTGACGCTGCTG; result = 255 a.u.
Strand = AAATTACTAAGTTGGTGCGTGGGTGACGCCGTATGAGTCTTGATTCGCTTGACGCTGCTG; result = 68.9 a.u.
Strand = AAAGCGGTAATTTTTCACGTGCTTTCACATATCTATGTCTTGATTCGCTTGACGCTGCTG; result = 1270 a.u.
Strand = AAAAAAAGAACTGTGTACGTGATGGCTTTGTCCCCTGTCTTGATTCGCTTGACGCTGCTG; result = 95.6 a.u.
Strand = GGGAATGTAGCGGAGCATGTGATGGAAGAGCTTCGGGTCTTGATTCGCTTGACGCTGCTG; result = 413 a.u.
Strand = CGTAGTATGGCAATATTCGTGGGTATAACATTCTGCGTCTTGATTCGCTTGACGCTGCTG; result = 80.1 a.u.
Strand = CAGCAGCCTTGCCATCACGCTTAGCTTGAATGATGTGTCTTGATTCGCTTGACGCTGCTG; result = 86.4 a.u.
Strand = TTGTAAGGTGCAATGCACATGAGTGATTGTTAAAAAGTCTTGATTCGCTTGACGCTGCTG; result = 105 a.u.
Strand = CTTCTGTAAATTTGTCACACGACTTGACGCGCCCCGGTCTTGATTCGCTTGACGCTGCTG; result = 130 a.u.
Strand = CGTCCTAGTGATTTTCACGTGGCTTCCATGAGGAAGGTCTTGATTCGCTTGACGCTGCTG; result = 783 a.u.
Strand = GCCCACTTTTTTTCAAATGTGTGAGACACCCATACCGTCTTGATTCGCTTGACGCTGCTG; result = 88.7 a.u.

Set 3
Target: Histone acetyltransferase KAT6A, winged helix 2, GST fusion (KAT6A, Homo sapiens, UniProt Q92794, residues 85-181)
Technique: protein binding microarray
Molecule type: double-stranded DNA, one strand shown
Sample: in vitro
Tested at: not given
Setting: 8-mer, flanks averaged, mean of 2 arrays, mostly near background
Reference: not given
Reading: higher = stronger binding
Endpoint: E-score
Target sequence (chain): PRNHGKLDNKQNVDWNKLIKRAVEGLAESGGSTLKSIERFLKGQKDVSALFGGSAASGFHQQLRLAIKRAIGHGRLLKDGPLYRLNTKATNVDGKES
Strand = ATAGGCTG; result = -0.0565
Strand = CTGAATTC; result = -0.0857
Strand = CATTTACC; result = -0.0261
Strand = CTAAGCCC; result = -0.0848
Strand = ACGGCGCA; result = -0.00266
Strand = CCGATGTC; result = -0.0797
Strand = AACTGTGA; result = -0.0389
Strand = CATATCAC; result = -0.0965
Strand = AAACTTGC; result = 0.0895
Strand = CAACTCGA; result = -0.0426
Strand = AATAGAGT; result = -0.247
Strand = AGCTTCGC; result = 0.124
Strand = AAGGTCTC; result = -0.0557
Strand = CCGGTTCG; result = 0.103
Strand = AGCAGCAA; result = 0.0905
Strand = ACGATGTA; result = -0.114
Strand = TGTCTAAA; result = 0.132
Strand = ACTGGGTG; result = 0.00547
Strand = CGATCCCG; result = 0.0158
Strand = TAAAACAA; result = 0.14
Strand = ATAAGTTG; result = -0.0216
Strand = ATTCTACA; result = 0.0262
Strand = AATCAAGC; result = 0.0889
Strand = AGCCAGAA; result = -0.0987
Strand = GGCAGGTA; result = 0.034

Set 4
Target: Prothrombin, mature alpha-thrombin (F2, Homo sapiens, UniProt P00734)
Technique: aptamer microarray, sandwich
Molecule type: DNA with 2'F-ANA
Sample: in vitro
Tested at: 200 nM
Setting: whole 15-mer aptamer, many near background
With: Cy3 exosite-II aptamer, 400 nM
Reading: higher = stronger binding
Endpoint: mean fluorescence intensity
Strand: GGTTGGTGTGGTTGG
Modification = 2'F-ANA at 2 3 4 5 6 8 9 11 12 13 14 15; result = 54.8 a.u.
Modification = 2'F-ANA at 2 5 7 8 9 11 12; result = 144 a.u.
Modification = 2'F-ANA at 1 2 3 5 6 8 9 12 13 14; result = 47.5 a.u.
Modification = 2'F-ANA at 1 2 5 7 11 12 14 15; result = 79.1 a.u.
Modification = 2'F-ANA at 4 5 7 9 12 15; result = 130 a.u.
Modification = 2'F-ANA at 3 6 9 11 12 13 15; result = 787 a.u.
Modification = 2'F-ANA at 1 5 6 9 11 12 14; result = 53.2 a.u.
Modification = 2'F-ANA at 3 10 11 12 14 15; result = 403 a.u.
Modification = 2'F-ANA at 1 2 3 7 8 10 11 13 15; result = 63.7 a.u.
Modification = 2'F-ANA at 1 4 5 8 10 11 13 15; result = 61.4 a.u.
Modification = 2'F-ANA at 1 4 6 8 11 12 15; result = 205 a.u.
Modification = 2'F-ANA at 1 2 4 5 7 8 9 13; result = 48.3 a.u.
Modification = 2'F-ANA at 3 4 6 7 8 10 11 12 14; result = 171 a.u.
Modification = 2'F-ANA at 3 4 8 9 10 12 13 14; result = 188 a.u.
Modification = 2'F-ANA at 3 5 12 13 14 15; result = 60.1 a.u.
Modification = 2'F-ANA at 4 5 8 9 12 14 15; result = 50.3 a.u.
Modification = 2'F-ANA at 1 2 3 4 5 7 8 11 14; result = 43.4 a.u.
Modification = 2'F-ANA at 4 6 8 10 11 12 14 15; result = 58.2 a.u.
Modification = 2'F-ANA at 2 3 4 6 8 9 11 12 13 14 15; result = 212 a.u.
Modification = 2'F-ANA at 3 4 5 8 11 12 15; result = 167 a.u.
Modification = 2'F-ANA at 1 3 5 6 7 8 9 10 11 12 13; result = 95.5 a.u.
Modification = 2'F-ANA at 1 2 4 7 8 10 11 12 13 15; result = 57.4 a.u.
Modification = 2'F-ANA at 1 2 4 5 6 9 14; result = 46.5 a.u.
Modification = 2'F-ANA at 1 2 3 5 8 10 12 13 14 15; result = 50.3 a.u.
Modification = 2'F-ANA at 1 2 3 5 6 8 12 13 14; result = 52.2 a.u.

For quick reference, copied from above (set 4):
Modification = 2'F-ANA at 3 6 9 11 12 13 15; result = 787 a.u.
Modification = 2'F-ANA at 3 4 5 8 11 12 15; result = 167 a.u.
Modification = 2'F-ANA at 4 5 7 9 12 15; result = 130 a.u.
Modification = 2'F-ANA at 1 2 3 5 6 8 12 13 14; result = 52.2 a.u.
Modification = 2'F-ANA at 1 2 3 4 5 7 8 11 14; result = 43.4 a.u.
Modification = 2'F-ANA at 1 2 4 7 8 10 11 12 13 15; result = 57.4 a.u.
Modification = 2'F-ANA at 3 5 12 13 14 15; result = 60.1 a.u.
